# Assay results pooled from the literature.
# Compare with care: the assays were run in different laboratories. ± gives the spread as reported.
SMILES,target,test,test system,conditions,scale,endpoint,result
NC(=O)C1CCNC(=O)C(CCCNC(=O)c2cnccn2)NC(=O)C(Cc2ccco2)NC(=O)C(CC2CC2)NC(=O)C=CC(=O)N1 (stereo not shown),"ERBB4 (Homo sapiens, UniProt Q15303)",DNA-templated library selection,,one selection round,,enrichment factor,0.63
CC(C)C[C@H](NC(=O)[C@H](Cc1ccc(O)cc1)NC(=O)[C@@H](CCCNC(=N)N)NC(=O)[C@@H](CO)NC(=O)[C@H](Cc1ccccc1)NC(=O)[C@H](CC1CCCCC1)NC(=O)[C@H](CC(=O)O)NC(=O)CN1CCN(CC(=O)O)CCN(CC(=O)O)CCN(CC(=O)O)CC1)C(=O)N[C@@H](Cc1c[nH]c2ccccc12)C(=O)N[C@@H](CO)C(N)=O,"Urokinase plasminogen activator surface receptor (Homo sapiens, UniProt Q03405)","binding, SPR",,,,koff,0.0043 s⁻¹
NCCCC[C@H](NC(=O)[C@H](C/C=C/C[C@H](NC(=O)[C@@H]1CCCN1)C(=O)N[C@@H](CCCCN)C(=O)NCCCN)NC(=O)[C@@H]1CCCN1)C(=O)NCCCN,(CUG)10 RNA,SPR,,,,residence time,15 s
CN[C@@H](C)C(=O)N[C@H]1CN(C(=O)Cc2ccccc2)CC[C@H]2CC[C@@H](C(=O)NCc3ccccc3)N2C1=O,"E3 ubiquitin-protein ligase XIAP, BIR3 domain with caspase-9 (XIAP, Homo sapiens, UniProt P98170)",antagonist,,"5 µM, BIR3 domain",,caspase-9 activity restored,50%
O=C1Nc2c(ccc(Cl)c2Cl)/C1=N/O,"Calm1/Kcnn2, SK2-a isoform (Rattus norvegicus, UniProt P0DP29+P70604, A477V/L480M)","channel current, potentiator, inside-out patch clamp",,together with: 200 nM Ca2+,relative to: wild type over mutant,EC50 shift,3.4 fold
CC(C)(Sc1nc2ncccc2n1Cc1ccc(Br)c2ccccc12)C(=O)O,"SLC22A12 (Homo sapiens, UniProt Q96S37)",,HEK293T transfected,"competitive model fit, together with: [14C]urate",,Vmax urate uptake,2260 pmol/min/mg
CCCN1C(=O)CCc2cc(NS(=O)(=O)Cc3ccc(C)cc3)ccc21,"Abscisic acid receptor PYR1, with HAB1 (PYR1, Arabidopsis thaliana, UniProt O49686)","PYR1-HAB1 interaction, agonist, AlphaScreen",,,relative to: pyrabactin,potency relative to pyrabactin,7.6 fold
O=C1c2ccccc2CCc2ccccc2N1CCCCOc1ccccc1,"Gap junction alpha-8 protein (Gja8, Mus musculus, UniProt P28236)",dual whole-cell voltage clamp,"N2a cell pairs, transfected",10 µM,,junctional current,inhibited
N[C@H]1CCCCNC(=O)[C@H](Cc2ccccc2)NC(=O)[C@@H]2CCCN2C(=O)[C@@H](N)CCCCNC(=O)[C@H](Cc2ccccc2)NC(=O)[C@@H]2CCCN2C1=O,"E3 ubiquitin-protein ligase XIAP, BIR3 domain (XIAP, Homo sapiens, UniProt P98170)",antagonist,MDA-MB-231 cell lysate,"100 µM, together with: 500 nM XIAP BIR3 protein",,caspase-3/7 activity,no effect
CC(C)C[C@H](NC(=O)CN)C(=O)N[C@@H](CO)C(=O)N[C@@H](Cc1ccccc1)C(=O)N[C@@H](C)C(=O)N[C@@H](Cc1ccccc1)C(=O)N1CCC[C@H]1C(=O)N[C@@H](C)C(=O)N[C@@H](CCCCN)C(=O)N[C@@H](CC(=O)O)C(=O)N[C@@H](C)C(=O)N[C@@H](CCC(=O)O)C(=O)N[C@@H](CC(N)=O)C(=O)N[C@@H](C)C(=O)N[C@@H](CO)C(=O)N[C@@H](CO)C(=O)N1CCC[C@H]1C(=O)N[C@H](C(=O)O)C(C)C,"Peptide cyclase 1 (Gypsophila vaccaria, UniProt R4P353, S562A)",ITC,,"pH 8.0, 25 °C",,ΔH,-28.5 ± 0.418 kJ/mol
Cc1ccccc1-c1nc(Nc2nc3ccccc3o2)ncc1C#N,"Grm5 (Rattus norvegicus, UniProt P31424)","calcium mobilization, negative allosteric modulator",,together with: glutamate EC80,relative to: maximal glutamate response,maximal response,1.9 ± 0.4%
COc1cccc(C(=O)N[C@H]2[C@@H](O)[C@@H](CO)O[C@@H](S[C@@H]3O[C@H](CO)[C@H](O)[C@H](NC(=O)c4cccc(OC)c4)[C@H]3OS(=O)(=O)O)[C@@H]2O)c1,"Galectin-3 (LGALS3, Homo sapiens, UniProt P17931)",ITC,,"concentration not given, Kd fixed from FP",,binding stoichiometry,1.01
CN(C1COC1)C(C)(C)/C=C(\C#N)C(=O)N1CCC[C@H]1Cn1nc(-c2ccc(Oc3ccccc3)cc2F)c2c(N)ncnc21,"Tyrosine-protein kinase (Rattus norvegicus, UniProt Q5S255)",,"rat, PBMC","oral, 40 mg/kg, 24 (unit not given)",,receptor occupancy,41 ± 15%
Cc1ccc(C)c2sc(NC(=O)C3CCN(S(=O)(=O)c4ccc(F)cc4)CC3)nc12,"Napepld (Mus musculus, UniProt Q8BH82)","enzyme activity, activator",RAW264.7,together with: PED-A1 substrate,relative to: vehicle,Emax,2.2 fold
C[C@H](NC(=O)[C@@H]1CCCN1C(=O)[C@@H](NC(=O)[C@H](CCCCN)NC(=O)[C@H](CO)NC(=O)CNC(=O)[C@H](CO)NC(=O)[C@H](CC(N)=O)NC(=O)[C@H](Cc1c[nH]c2ccccc12)NC(=O)[C@H](C)NC(=O)[C@@H]1CCCN1C(=O)[C@@H](NC(=O)[C@H](CCCCN)NC(=O)[C@H](CO)NC(=O)CNC(=O)[C@@H](N)CO)[C@@H](C)OP(=O)(O)O)[C@@H](C)OP(=O)(O)O)C(=O)N[C@@H](Cc1c[nH]c2ccccc12)C(=O)N[C@@H](CC(N)=O)C(=O)N[C@@H](CO)C(=O)NCC(=O)N[C@@H](CO)C(=O)N[C@@H](CCCCN)C(=O)O,"mRNA-capping enzyme subunit beta (pct1, Schizosaccharomyces pombe, UniProt Q9P6Q6)",fluorescence polarization,,,relative to: unphosphorylated over Thr1-phosphorylated,affinity fold loss,33 fold
CNc1ccccc1C(=O)O[C@H]1C[C@H](n2cnc3c(N)ncnc32)O[C@@H]1COP(=O)(O)OP(=O)(O)O,"Unconventional myosin-Va (Gallus gallus, UniProt Q02440, D297C/G292C/I296C/S293C/V295G)",FRET,compound complex,"4 °C, together with: 2 mM MgCl2",,donor-acceptor distance,15.5 Å
Cc1ncsc1-c1ccc(C(CO)NC(=O)C2CC(O)CN2C(=O)C(C(C)C)n2cc(-c3ccc(COc4c(-c5c(C)c(F)cc6[nH]ncc56)c(C5CC5)cc5c(N6CC7CC6CN7)nc(OC6CCOCC6)nc45)cc3)nn2)cc1 (stereo not shown),"GTPase KRas (KRAS, Homo sapiens, UniProt P01116, G12D)",degrader,"mouse PK-59 xenograft, tumour","intravenous, 30 mg/kg single, 144 h",,protein degradation,63%
O=C(O)[C@@H]1O[C@@H](O[C@H]2[C@H](O)[C@H](O)[C@H](O[C@H]3[C@H](O)[C@H](O)[C@H](O[C@H]4[C@H](O)[C@H](O)[C@H](O)O[C@H]4C(=O)O)O[C@H]3C(=O)O)O[C@H]2C(=O)O)[C@@H](O)[C@@H](O)[C@@H]1O,"Beta-lactoglobulin (LGB, Bos taurus, UniProt P02754, A134V/G80D)",isothermal titration calorimetry,,"concentration not given, pH 2.65, 37 °C, 50 mM KH2PO4",ligand per protein,binding stoichiometry,5
CC1=C(O)C(=O)C=C2C1=CC=C1[C@@]2(C)CC[C@@]2(C)[C@@H]3C[C@](C)(C(=O)NCCOCCOCCOCCOCC(=O)N[C@H](C(=O)N4C[C@H](O)C[C@H]4C(=O)N[C@@H](C)c4ccc(-c5scnc5C)cc4)C(C)(C)C)CC[C@]3(C)CC[C@]12C,"Nuclear receptor subfamily 4 group A member 1 (Nr4a1, Mus musculus, UniProt P12813)","degrader, immunoblotting",SW1 mouse melanoma,"concentration not given, 16 h",,protein level,decreased
O=C(O)c1ccc(/C=C2\SC(=S)N(Cc3cccc(C(F)(F)F)c3)C2=O)cc1,"NACHT, LRR and PYD domains-containing protein 3, with ASC (Nlrp3, Mus musculus, UniProt Q8R4B8)",,mouse BMDM,"concentration not given, together with: nigericin",,NLRP3 level,decreased
CCCN(CC(=O)N(CCC)CC(=O)N(CCC)CC(=O)N(CCC)CC(=O)N(CCC)CC(=O)N(CCC)CC(=O)N(CCC)CC(=O)N(CCC)CC(=O)N(CCC)CC(=O)N(CCC)CC(=O)N(CCC)CC(=O)N(CCC)CC(=O)N(CC(N)=O)Cc1cn(CCCNC(=O)CCCOc2cccc(-c3nc4ccc(-c5nc6ccc(N7CCN(C)CC7)cc6[nH]5)cc4[nH]3)c2)nn1)C(=O)CNCc1cn(CCCNC(=O)CCCOc2cccc(-c3nc4ccc(-c5nc6ccc(N7CCN(C)CC7)cc6[nH]5)cc4[nH]3)c2)nn1,MBNL1–r(CUG)109 complex,MBNL1 displacement,0.65 pmol r(CUG)109,"unit not given, together with: yeast tRNA 3.7 µM",relative to: monomer 2 IC50 per module,multivalent effect,< 1.8
O=C([O-])CN1CCN(CC(=O)[O-])CCN(C(CCC(=O)NCCCCCN(CCCC[C@H](NC(=O)N[C@@H](CCC(=O)O)C(=O)O)C(=O)O)C(=O)c2ccc(I)cc2)C(=O)O)CCN(CC(=O)[O-])CC1.[68Ga+3] (stereo partly shown),"FOLH1 (Homo sapiens, UniProt Q04609)",PET/CT,"prostate cancer patients, bone metastases",,relative to: bone metastases over liver,tumour-to-normal tissue ratio,12.7 ± 12.1
COc1ccc(-c2cc(C(F)(F)F)nc(NCc3ccc(Cl)cc3)n2)cc1OC,"GLP1R (Homo sapiens, UniProt P43220)","cAMP accumulation, positive allosteric modulator",HEK-293T overexpressing GLP1R,together with: EC20 GLP-1,,Emax,51 ± 7.4%
CCOCCNC(=O)N1CCC[C@H](c2n[nH]c(-c3ccccc3)n2)C1,"Aromatase (CYP19A1, Homo sapiens, UniProt P11511)","enzyme activity, inhibitor, MFC to HFC conversion",,"20 µM, together with: MFC substrate",,apparent Km,57.6 µM
CC(C)(C)CCN1C[C@@H]2[C@@H](CNC(=O)c3cc(Cl)cc(Cl)c3)[C@@H]2C1.Cl,"Voltage-dependent L-type calcium channel subunit alpha-1F (Homo sapiens, UniProt O60840, M1004A)","calcium current, whole-cell patch clamp",HEK-293T cells,100 µM,,activation slope factor k,9.02 ± 1.84 mV

# A few entries again:
SMILES,target,test,test system,conditions,scale,endpoint,result
COc1ccc(-c2cc(C(F)(F)F)nc(NCc3ccc(Cl)cc3)n2)cc1OC,"GLP1R (Homo sapiens, UniProt P43220)","cAMP accumulation, positive allosteric modulator",HEK-293T overexpressing GLP1R,together with: EC20 GLP-1,,Emax,51 ± 7.4%
CCCN(CC(=O)N(CCC)CC(=O)N(CCC)CC(=O)N(CCC)CC(=O)N(CCC)CC(=O)N(CCC)CC(=O)N(CCC)CC(=O)N(CCC)CC(=O)N(CCC)CC(=O)N(CCC)CC(=O)N(CCC)CC(=O)N(CCC)CC(=O)N(CC(N)=O)Cc1cn(CCCNC(=O)CCCOc2cccc(-c3nc4ccc(-c5nc6ccc(N7CCN(C)CC7)cc6[nH]5)cc4[nH]3)c2)nn1)C(=O)CNCc1cn(CCCNC(=O)CCCOc2cccc(-c3nc4ccc(-c5nc6ccc(N7CCN(C)CC7)cc6[nH]5)cc4[nH]3)c2)nn1,MBNL1–r(CUG)109 complex,MBNL1 displacement,0.65 pmol r(CUG)109,"unit not given, together with: yeast tRNA 3.7 µM",relative to: monomer 2 IC50 per module,multivalent effect,< 1.8
CN[C@@H](C)C(=O)N[C@H]1CN(C(=O)Cc2ccccc2)CC[C@H]2CC[C@@H](C(=O)NCc3ccccc3)N2C1=O,"E3 ubiquitin-protein ligase XIAP, BIR3 domain with caspase-9 (XIAP, Homo sapiens, UniProt P98170)",antagonist,,"5 µM, BIR3 domain",,caspase-9 activity restored,50%
